Measured values of several laboratories.
Parts stem from different laboratories: compare values within a part only. Changes are numbered by the printed parent chain.
UniProt Q38832, sequence (whole entry, looked up): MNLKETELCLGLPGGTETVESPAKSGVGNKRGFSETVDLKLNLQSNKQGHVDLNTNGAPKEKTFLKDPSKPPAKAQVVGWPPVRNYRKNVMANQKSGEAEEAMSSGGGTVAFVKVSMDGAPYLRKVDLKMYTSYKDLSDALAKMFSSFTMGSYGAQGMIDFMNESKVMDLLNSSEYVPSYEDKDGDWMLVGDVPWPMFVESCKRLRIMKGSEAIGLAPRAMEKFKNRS
UniProt Q8H174, sequence (whole entry, looked up): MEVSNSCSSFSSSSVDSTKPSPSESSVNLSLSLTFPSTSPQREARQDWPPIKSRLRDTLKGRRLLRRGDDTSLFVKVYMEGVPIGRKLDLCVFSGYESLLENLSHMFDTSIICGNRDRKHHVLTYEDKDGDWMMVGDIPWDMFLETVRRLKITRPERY
UniProt Q93YR9, sequence (whole entry, looked up): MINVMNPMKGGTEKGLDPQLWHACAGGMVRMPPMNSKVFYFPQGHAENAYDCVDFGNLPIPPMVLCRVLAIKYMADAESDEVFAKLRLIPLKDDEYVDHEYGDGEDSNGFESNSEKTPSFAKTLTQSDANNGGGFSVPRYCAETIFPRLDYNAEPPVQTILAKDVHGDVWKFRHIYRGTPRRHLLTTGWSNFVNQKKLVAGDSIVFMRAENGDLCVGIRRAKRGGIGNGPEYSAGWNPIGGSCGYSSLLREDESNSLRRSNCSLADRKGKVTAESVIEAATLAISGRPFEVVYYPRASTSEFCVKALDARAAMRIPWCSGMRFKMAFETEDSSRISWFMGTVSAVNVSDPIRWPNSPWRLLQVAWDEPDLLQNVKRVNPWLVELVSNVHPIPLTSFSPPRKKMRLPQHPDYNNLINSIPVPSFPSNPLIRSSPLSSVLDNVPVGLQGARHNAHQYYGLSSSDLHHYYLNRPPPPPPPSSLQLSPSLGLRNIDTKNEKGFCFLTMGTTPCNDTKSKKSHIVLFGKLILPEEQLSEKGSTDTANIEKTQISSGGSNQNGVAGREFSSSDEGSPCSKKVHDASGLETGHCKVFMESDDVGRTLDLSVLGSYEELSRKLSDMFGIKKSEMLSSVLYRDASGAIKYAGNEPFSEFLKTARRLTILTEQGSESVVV
UniProt O24408, sequence (whole entry, looked up): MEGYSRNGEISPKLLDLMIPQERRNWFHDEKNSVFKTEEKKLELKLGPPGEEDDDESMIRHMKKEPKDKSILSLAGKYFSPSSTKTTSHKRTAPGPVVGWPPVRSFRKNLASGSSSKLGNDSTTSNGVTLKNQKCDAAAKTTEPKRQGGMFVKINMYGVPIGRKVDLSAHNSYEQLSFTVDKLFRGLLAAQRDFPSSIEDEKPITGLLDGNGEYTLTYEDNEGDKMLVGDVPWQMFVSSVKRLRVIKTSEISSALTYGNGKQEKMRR
UniProt Q9ZTX9, sequence (whole entry, looked up): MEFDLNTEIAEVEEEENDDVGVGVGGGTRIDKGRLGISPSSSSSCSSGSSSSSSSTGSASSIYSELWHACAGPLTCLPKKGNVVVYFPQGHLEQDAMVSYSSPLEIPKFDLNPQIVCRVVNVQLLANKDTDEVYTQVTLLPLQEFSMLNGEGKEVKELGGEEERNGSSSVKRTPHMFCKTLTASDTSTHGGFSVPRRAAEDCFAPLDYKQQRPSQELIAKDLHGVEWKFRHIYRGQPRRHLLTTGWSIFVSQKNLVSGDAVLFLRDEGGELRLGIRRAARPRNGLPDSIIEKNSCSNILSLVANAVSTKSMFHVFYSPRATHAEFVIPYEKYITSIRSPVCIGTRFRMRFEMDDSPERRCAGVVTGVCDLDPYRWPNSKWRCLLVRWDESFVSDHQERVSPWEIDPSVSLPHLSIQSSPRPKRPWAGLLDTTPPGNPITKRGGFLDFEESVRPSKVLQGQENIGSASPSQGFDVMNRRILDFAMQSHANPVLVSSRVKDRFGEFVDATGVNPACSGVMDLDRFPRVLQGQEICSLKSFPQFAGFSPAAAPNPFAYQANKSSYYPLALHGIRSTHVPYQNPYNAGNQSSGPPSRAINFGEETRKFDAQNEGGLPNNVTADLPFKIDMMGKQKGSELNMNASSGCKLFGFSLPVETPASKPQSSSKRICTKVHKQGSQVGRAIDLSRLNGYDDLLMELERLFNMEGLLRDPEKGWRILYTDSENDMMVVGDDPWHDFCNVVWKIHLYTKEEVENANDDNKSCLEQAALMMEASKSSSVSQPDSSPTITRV

Set 1
Sequence: B1 (IAA5)
Method: two-hybrid
Direction: higher = firmer interaction
T1: itself; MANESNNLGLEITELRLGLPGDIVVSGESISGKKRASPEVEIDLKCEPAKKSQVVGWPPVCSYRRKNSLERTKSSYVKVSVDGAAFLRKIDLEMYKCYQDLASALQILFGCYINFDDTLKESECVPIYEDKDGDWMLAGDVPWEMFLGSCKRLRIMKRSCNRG
B1: IAA5 (Arabidopsis thaliana, UniProt P33078); chain MANESNNLGLEITELRLGLPGDIVVSGESISGKKRASPEVEIDLKCEPAKKSQVVGWPPVCSYRRKNSLERTKSSYVKVSVDGAAFLRKIDLEMYKCYQDLASALQILFGCYINFDDTLKESECVPIYEDKDGDWMLAGDVPWEMFLGSCKRLRIMKRSCNRG
| partner | relative to | positive tests |
| --- | --- | --- |
| ARF16 570-670 (Arabidopsis thaliana, UniProt Q93YR9) | out of 4 tests | 2 |
| ARF4 660-788 (Arabidopsis thaliana, UniProt Q9ZTX9) | out of 4 tests | 2 |
| IAA31 (Arabidopsis thaliana, UniProt Q8H174) | out of 4 tests | 4 |
| T1, itself | out of 4 tests | 2 |
| IAA18 (Arabidopsis thaliana, UniProt O24408) | out of 2 tests | 2 |
| IAA14 (Arabidopsis thaliana, UniProt Q38832) | out of 4 tests | 4 |

Set 2
Target: RING finger protein unkempt homolog, zinc fingers 1-6, GST-SBP tag (UNK, Homo sapiens, UniProt Q9C0B0, residues 30-357)
Method: RNA Bind-n-Seq
Form: RNA
Medium: in vitro
Concentration: not given
Setting: RNA with constant flanks, human-mouse chimeric sites, ends assumed
Relative to: input RNA pool
Direction: higher = stronger binding
Constant ends, left off below: GGGAGUUCUACAGUCCGACGAUC … CAACAGAGGAUUGAGCAUCA
Target sequence (chain): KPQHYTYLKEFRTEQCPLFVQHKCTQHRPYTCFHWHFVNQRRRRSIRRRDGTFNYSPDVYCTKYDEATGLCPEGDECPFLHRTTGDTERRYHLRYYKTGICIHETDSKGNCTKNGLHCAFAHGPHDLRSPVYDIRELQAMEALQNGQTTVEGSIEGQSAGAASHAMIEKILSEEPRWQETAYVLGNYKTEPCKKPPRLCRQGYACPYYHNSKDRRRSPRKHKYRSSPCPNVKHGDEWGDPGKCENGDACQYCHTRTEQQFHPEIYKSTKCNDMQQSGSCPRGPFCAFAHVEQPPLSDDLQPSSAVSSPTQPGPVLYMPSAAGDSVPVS
| Sequence | bound/input enrichment [ratio] |
| --- | --- |
| GAAACAUUUAAAUUUAAAGAAGCUGUUGUUCUAGGAAGUACGGACUUCCUAGAAGAUGAUAUAGAGAAAAUUGUAGAAGAACUGGGGAAAGAGUAUAAAGGCAAUGCCUACCAUCUGAUG | 1.3 |
| CGCUGGCCCAAGCUGAUGGACUCUGAUGGCCUCCAUCUCUCAGGCACGUGUGCCUUCUCUUAGUCCCUGUUUUCGGGUCACAAAGCUUCUCAGUACUGUUUGACAGAAGCACCAGCUUUG | 0.0956 |
| UUAAACAGUUGAACUGUGGACUCUGAUGGCCUCCAUCUCUCAGGCACGUGUGCCUUCUCUUAGUCCCUGUUUUCGGGAUGUUAUGAAUCUCAGUACUGUGGUUUGAAAGCACCAGCUUUG | 0.197 |
| GCAAAGGAUGAUGAGGCAGCUGCAGUUGCCCUUUCCUCUCUCGUUCAUGCUUUGGAUGAGUUAAACAUGGUCGCCAUCGUCCGAUAUGCUUAUGACAAAAGAUCUAAUCCUCAAGUCGGU | 0.212 |
| UAAGUCCUGUGCCAGCACUUCGCUCAUAAAGUUUUAAAUUCUGGACCAAUUGUGUUUGUUUCCUGAUUAUUGUAUCCAAUACUUUGCCUAGUAUGUAACUCACUCUUCUGGAUAAAUAAA | 2.16 |
| CACGUGUCUGCAGUACUUGAUGUGGACUACUCUCCCACUGGGAAGGAGUUUGUGUCUGCCAGCUUUGAUAAGUCUAUUAGAAUCUUUCCUGUGGACAAAAGUCGAAGCAGGGAAGUGUAU | 0.193 |
| AAAGUGAUAACCAUGUUUGUCCAACGACAGGUAUUUUCGGAGAGCAAAGAUGAGAUUGCGUUAGUCCUCUAUGGCACAGAUGGCACUGAUAAUGCCCUUGCUGGCAAGGAUCAGUAUCAG | 0.195 |
| GAUCCACAGUGGUCUGAGGAGCAACUCAUUGCUGCAAAAUUCUGUUUUGCUGGCCUUGUUAUAGGGCAGACUGAAGUGGACAUCAUGAGUCAUGCUACACAGGCUAUUUUUGAAAUUCUG | 0.153 |

Set 3
Target: Histone acetyltransferase KAT6A, winged helix 2, GST fusion (KAT6A, Homo sapiens, UniProt Q92794, residues 85-181)
Method: protein binding microarray
Form: double-stranded DNA, one strand shown
Medium: in vitro
Concentration: not given
Setting: 8-mer, flanks averaged, mean of 2 arrays, mostly near background
Relative to: not given
Direction: higher = stronger binding
Residues (chain): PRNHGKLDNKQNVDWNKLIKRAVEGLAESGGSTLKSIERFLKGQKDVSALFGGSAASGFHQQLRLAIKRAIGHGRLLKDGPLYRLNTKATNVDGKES
| Sequence | E-score |
| --- | --- |
| CCTTGCAC | -0.0614 |
| CTTCTCAC | -0.0393 |
| GTTATTTA | -0.0107 |
| ACTGCGGC | 0.152 |
| CACCGGTC | -0.0549 |
| TCTCGTCA | 0.065 |
| CCTCAAAC | 0.119 |
| AGTTAACG | -0.072 |
| TATTAGGA | -0.103 |
| CGATTGGA | -0.077 |
| ATTTCATA | 0.0699 |
| ACGAACCG | -0.0159 |
| GCTAGGAA | 0.0183 |
| GCTCTTAC | 0.0351 |
| ACGTTGTA | -0.163 |
| ATGGTTTG | 0.0376 |
| AACGACTT | -0.184 |
| GTCATGTA | -0.269 |
| CGGGTTAC | -0.0244 |
| GAGGCACA | 0.0561 |
| ATCAAGTA | -0.0627 |
| GATGAGTA | -0.0482 |
| CACTCCTC | -0.00938 |
| GCGCTCAC | 0.0413 |
| GGACGAAC | 0.177 |

Set 4
Target: CCND2, cyclin fold, Cln2 fusion (human)
Method: yeast growth competition, sequencing
Medium: yeast
Setting: weak parent motif
Relative to: not given
Direction: higher = stronger binding
Starting sequence: ANKRD17 docking peptide (human); PSVRRQLFVTVVK; partner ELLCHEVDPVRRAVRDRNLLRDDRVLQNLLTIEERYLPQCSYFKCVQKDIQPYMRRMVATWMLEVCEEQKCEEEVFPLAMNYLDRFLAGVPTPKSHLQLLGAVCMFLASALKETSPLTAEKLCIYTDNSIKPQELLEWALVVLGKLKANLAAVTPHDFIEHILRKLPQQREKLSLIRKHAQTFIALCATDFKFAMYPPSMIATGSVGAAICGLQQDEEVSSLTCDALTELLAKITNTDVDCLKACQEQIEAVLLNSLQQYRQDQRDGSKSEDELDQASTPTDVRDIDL
| Change | normalised enrichment score |
| --- | --- |
| R5K F8L | 0.442 |
| R5A L7A | -0.038 |
| V3A | 0.525 |
| L7A | 0.521 |
| T10A | 0.938 |
| V9A | 0.145 |
| Q6A | -0.276 |
| V11A | 0.576 |
| F8L | -0.22 |
| S2A | 0.303 |

Mixed results
| Molecule | target | test | test system | setting | how to read | measurement | result |
| --- | --- | --- | --- | --- | --- | --- | --- |
| PhoQ, residues 284 288 289 292 302 303 NLCILV | PhoP, residues 12 14 15 18 19 SEGLL (Escherichia coli, UniProt P23836) | Sort-seq, item: YFP reporter | E. coli | PhoQ-PhoP variant library, together with: 10 µM Mg2+ | relative to: high Mg2+ state, higher = stronger signaling | fold induction | 16.6 |

Excerpt of the above (set 3):
| Sequence | E-score |
| --- | --- |
| GCTAGGAA | 0.0183 |
| GCTCTTAC | 0.0351 |
| ACGTTGTA | -0.163 |
| ATGGTTTG | 0.0376 |
| AACGACTT | -0.184 |
| GTCATGTA | -0.269 |
